# Assay results from different studies.
# Each numbered part is a random draw from the data of one study; scales do not carry over between parts. Substitutions count along the parent as printed.

# Set 1
# Target: Interferon regulatory factor 5, full length, phosphomimetic (IRF5, Homo sapiens, UniProt Q13568-2, residues 1-514, S451D/S453D/S456D/S462D)
# Method: protein-binding microarray
# Molecule type: double-stranded DNA, one strand shown
# Medium: in vitro
# Tested at: 940 nM top
# Notes: 60-bp whole probe
# Added: salmon DNA 0.4 mg/ml
# Reference: random background probes
# Reading: higher = stronger binding
# Shared flanks, not repeated: GCCTAGCAC … GTCTTGATTCGCTTGACGCTGCTG
Sequence,fitted relative affinity [z-score]
TTAGGTTCCGGTTACGGTTAGTGCTAG,4.06
TTAGATTTCGGGTACCGATTAGTGCTA,1.03
TTCTTAATGCTTCTGGACCAGTGCTAG,-0.0451
GACGATAACAGTCTCGAGACGTGCTAG,0.941
AAGGAAGGACCATCCAGAGAGTGCTAG,-0.482
TTAGGTCTCGGTATGGGTTAGTGCTAG,4.86
TTAGGTACCGACTATCGGTTAGTGCTA,0.265
TTAGGTACCGACACTGGGTTAGTGCTA,-0.0426
TTCTCTCCCATTCTGAATTCGTGCTAG,1.4
TTAGATTTCAGTATGGATTAGTGCTAG,0.429
TTAGATCTCAGTTTTGATTAGTGCTAG,0.974
GACGGTTTCTACTTTCGGGACGTGCTA,3.62
TAAGGTTTCCTTCTCCTTTAGTGCTAG,1.64
GACGATTTCGTGTTTCGAGACGTGCTA,0.595
TTGGATTTCAGTTTCGATTAGTGCTAG,9.16
TCTTTTTTTTCTTTAAAAGTGTGCTAG,1.07
TTAGGTATCGGTATCGGTTAGTGCTAG,11
TTAAGTTCCCTTTTCCTTTAGTGCTAG,1.02
TTAGGTATCGACACTAGGTTAGTGCTA,4.53

# Set 2
# Target: CCNA2, cyclin fold, Cln2 fusion (human)
# Method: yeast growth competition, sequencing
# Medium: yeast
# Notes: weak parent motif
# Reference: not given
# Reading: higher = stronger binding
# Starting sequence: E2F7 docking peptide (human); SSAQRRLEIPSGG
Substitution,normalised enrichment score
R6A,-0.61
I9A,0.207
L7A,0.114
G12A,0.253
E8A,0.762
R5K I9F,3.52
S1A,0.996
R5K,-0.0827

# Set 3
# Target: ABI1, truncated, D143A, DHFR fusion (Arabidopsis thaliana)
# Method: DHFR PCA, deep sequencing
# Medium: yeast
# Notes: methotrexate growth selection, single substitutions
# Added: (+)-ABA 0.11 µM
# Reference: wild-type fitted maximum
# Reading: higher = stronger binding
# Starting sequence: PYL1, truncated, DHFR fusion (Arabidopsis thaliana); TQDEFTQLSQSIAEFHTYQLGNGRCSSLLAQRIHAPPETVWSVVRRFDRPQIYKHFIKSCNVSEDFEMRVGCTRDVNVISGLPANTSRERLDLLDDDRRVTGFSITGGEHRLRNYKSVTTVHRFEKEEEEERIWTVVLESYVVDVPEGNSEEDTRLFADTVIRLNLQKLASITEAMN
Substitution,relative binding score [%]
F5Q,15.5
R163K,54.8
N149A,54.5
E174H,3.65
A84W,96.1
P37D,-8.72
I33C,4.72
G81H,-1.71
R111N,-0.378
G71H,6.01
T173A,37.4
T119D,0.00185
E127R,39.4
H122I,2.99
C25T,52.7
A13C,8.26
T6Y,40.7

# Further values, each from its own experiment
Molecule,target,test,test system,conditions,scale,quantity,result
"PhoQ, residues 284 288 289 292 302 303 SLKLQV","PhoP, residues 12 14 15 18 19 NYFTV (Escherichia coli, UniProt P23836)","Sort-seq, refers to: YFP reporter",E. coli,"PhoQ-PhoP variant library, added: 10 µM Mg2+","reference: high Mg2+ state, higher = stronger signaling",fold induction,10.1

# Some of these lines once more (set 2):
Substitution,normalised enrichment score
R6A,-0.61
E8A,0.762
I9A,0.207
